Experimental data of several laboratories.
Numbered parts are unrelated; each lists some results of a single study. Changes are numbered by the printed parent chain.

Series 1 — target: ATF2, bZIP domain (human); technique: DHFR protein complementation; medium: yeast; reference: wild-type JUN-FOS pair; direction: higher = stronger binding
Setting: single substitutions, most at no-binding floor
Starting sequence: JUN, bZIP domain (human); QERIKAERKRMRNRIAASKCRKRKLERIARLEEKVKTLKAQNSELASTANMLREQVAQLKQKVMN; partner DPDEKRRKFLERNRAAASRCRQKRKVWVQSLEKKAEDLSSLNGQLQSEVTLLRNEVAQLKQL
For `K36W`, the binding fitness was -1.34 natural log.
`Q55K` gave a binding fitness of -1.25 natural log.
`L38K` gave a binding fitness of -1.51 natural log.
`Q41W` gave a binding fitness of -1.47 natural log.
With `L52Q` the binding fitness was -1.48 natural log.
With `Q41K` the binding fitness was -1.43 natural log.
`V35T` has a binding fitness of -1.4 natural log.
For `A40G`, the binding fitness was -1.47 natural log.
The binding fitness of `K36I` is reported as -1.4 natural log.
The binding fitness of `E32S` is reported as -1.39 natural log.
`N42A` gave a binding fitness of -1.48 natural log.
`L38A` has a binding fitness of -1.39 natural log.
`A29E` gave a binding fitness of -1.27 natural log.
`K39F` gave a binding fitness of -1.45 natural log.
`K39R` has a binding fitness of -1.33 natural log.
For `K34P`, the binding fitness was -1.51 natural log.

Series 2 — technique: DHFR PCA, deep sequencing; medium: yeast; added: (+)-ABA 710 µM; reference: wild-type fitted maximum; direction: higher = stronger binding
Target: ABI1, truncated, D143A, DHFR fusion (Arabidopsis thaliana)
Setting: methotrexate growth selection, single substitutions
Starting sequence: PYL1, truncated, DHFR fusion (Arabidopsis thaliana); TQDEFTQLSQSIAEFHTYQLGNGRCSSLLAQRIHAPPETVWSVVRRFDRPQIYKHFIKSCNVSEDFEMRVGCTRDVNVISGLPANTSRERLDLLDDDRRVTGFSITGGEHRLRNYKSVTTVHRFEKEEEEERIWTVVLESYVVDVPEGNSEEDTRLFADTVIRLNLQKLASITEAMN; partner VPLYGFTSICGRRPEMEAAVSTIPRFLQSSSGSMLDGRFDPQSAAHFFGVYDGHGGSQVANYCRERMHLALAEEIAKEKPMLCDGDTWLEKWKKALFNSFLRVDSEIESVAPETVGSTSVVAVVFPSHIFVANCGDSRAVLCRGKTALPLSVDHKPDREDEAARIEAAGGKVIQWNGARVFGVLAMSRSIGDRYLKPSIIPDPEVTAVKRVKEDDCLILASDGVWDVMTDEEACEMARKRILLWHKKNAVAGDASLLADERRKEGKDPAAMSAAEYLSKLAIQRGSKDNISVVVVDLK
Under “relative binding score”, `S87M` is recorded as 14.5%.
For `N61L`, “relative binding score” read 99.8%.
For `A84Y`, “relative binding score” read 62%.
`L164R`: “relative binding score” 102%.
`T17H`: “relative binding score” 102%.
`H34G` — result for “relative binding score”: 101%.
`D153H`: “relative binding score” 94.1%.
For `G81P`, “relative binding score” read 64.5%.
Under “relative binding score”, `E89L` is recorded as -14.4%.
`R163Q`: “relative binding score” 96.8%.
For `D153W`, “relative binding score” read -1.28%.
`L20V`: “relative binding score” 108%.
`R90G` — result for “relative binding score”: 38.6%.
`V44H`: “relative binding score” -5.94%.
For `R123D`, “relative binding score” read 103%.
For `R45G`, “relative binding score” read 75.4%.
`H16E` — result for “relative binding score”: 9.32%.
Under “relative binding score”, `R163L` is recorded as 74.1%.
`F124N`: “relative binding score” 98.5%.
For `V43M`, “relative binding score” read 96.8%.
For `A84F`, “relative binding score” read 44.7%.
`A35S`: “relative binding score” 97.6%.
Under “relative binding score”, `A35H` is recorded as 36%.
For `V161D`, “relative binding score” read 8.01%.

Series 3 — target: CCNB3, cyclin fold, Cln2 fusion (human); technique: yeast growth competition, sequencing; medium: yeast; setting: weak parent motif; reference: not given; direction: higher = stronger binding
Starting sequence: RBL1 docking peptide (human); GSAKRRLFGEDPP; partner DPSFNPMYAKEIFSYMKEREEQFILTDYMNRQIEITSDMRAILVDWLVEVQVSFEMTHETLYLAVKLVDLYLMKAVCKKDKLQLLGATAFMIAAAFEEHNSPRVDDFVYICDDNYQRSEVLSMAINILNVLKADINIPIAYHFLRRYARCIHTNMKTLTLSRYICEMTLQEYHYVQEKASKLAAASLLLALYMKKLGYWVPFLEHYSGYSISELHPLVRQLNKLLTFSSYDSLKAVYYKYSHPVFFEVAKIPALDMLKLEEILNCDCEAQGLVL
For `GSAKRRLFGPDPP [E10P]`, “normalised enrichment score” read 0.704.
`GSAKRRLFHEDPP [G9H]`: “normalised enrichment score” 0.933.
`GRAKRRLFGEDPP [S2R]` — result for “normalised enrichment score”: 0.514.
Under “normalised enrichment score”, `GPAKRRLFGEDPP [S2P]` is recorded as 0.361.
`GSAKRRLLGEDPP [F8L]` — result for “normalised enrichment score”: 0.0655.
`QSAKRRLFGEDPP [G1Q]` — result for “normalised enrichment score”: 0.565.
`RSAKRRLFGEDPP [G1R]` — result for “normalised enrichment score”: 1.29.
Under “normalised enrichment score”, `GSAKRRLFGEDNP [P12N]` is recorded as 0.887.
Under “normalised enrichment score”, `GSAKRRLFGEDLP [P12L]` is recorded as 0.322.
Under “normalised enrichment score”, `GSAKRRLFGTDPP [E10T]` is recorded as 0.431.
For `GSAKRRSFGEDPP [L7S]`, “normalised enrichment score” read 0.208.
For `GSAKRRLFGESPP [D11S]`, “normalised enrichment score” read 0.965.
Under “normalised enrichment score”, `GSAKMRLFGEDPP [R5M]` is recorded as 0.457.
Under “normalised enrichment score”, `GSAKRRTFGEDPP [L7T]` is recorded as -0.0552.
Under “normalised enrichment score”, `GSAKRRLFGEYPP [D11Y]` is recorded as 1.03.
For `GSAKRRLFGEDCP [P12C]`, “normalised enrichment score” read 0.319.
Under “normalised enrichment score”, `GSAKRRLHGEDPP [F8H]` is recorded as -0.0292.
`GSAKRRLFGEAPP [D11A]` — result for “normalised enrichment score”: 0.616.
`GSAKRRLFREDPP [G9R]`: “normalised enrichment score” 0.61.
For `GSAKRRLFGEDSP [P12S]`, “normalised enrichment score” read 0.927.
For `GSAKRWLFGEDPP [R6W]`, “normalised enrichment score” read 0.192.
`GSAKRRLFGADPP [E10A]` — result for “normalised enrichment score”: 0.43.
Under “normalised enrichment score”, `GSAARRLFGEDPP [K4A]` is recorded as 0.363.
`GSEKRRLFGEDPP [A3E]` — result for “normalised enrichment score”: 0.48.
`GSLKRRLFGEDPP [A3L]` — result for “normalised enrichment score”: 0.52.

Series 4 — technique: RNA Bind-n-Seq; form: RNA; medium: in vitro; tested at: 365 nM; reference: no-protein control; direction: higher = stronger binding
Target: RNA binding protein fox-1 homolog 2, RRM domain, GST-SBP tag (RBFOX2, Homo sapiens, UniProt O43251-10, residues 100-194)
Setting: natural RNA segment, single round, ends assumed
Residues (chain): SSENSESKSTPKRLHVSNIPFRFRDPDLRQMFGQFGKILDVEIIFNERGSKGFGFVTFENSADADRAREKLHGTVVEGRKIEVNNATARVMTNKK
`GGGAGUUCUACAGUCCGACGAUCAAUAUGCCUUCCUGCUGAGCUGAAGUCUUUCAUUCCACUUCACUGGGGGAGCAGCUGAGGCUUGGGGCCUUGCUCCCUGGGACAUUCUCUCCAUCUUUUGGUGCAUUGGCUGGAAUUCUCGGGUGCCAA` — result for “RBNS enrichment (R)”: 0.623.
Under “RBNS enrichment (R)”, `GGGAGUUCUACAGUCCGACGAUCUGCUCCAGAAAAUUUUCUAUUCUGUAAGUCUAAGGGUAAAACUUCAAGUAUUAAGAUAAUUUGUACAUGUAGAGAAAAAAAUGACUUUUUCAUAAUAUACAGGGGCAGCUUGGAAUUCUCGGGUGCCAA` is recorded as 0.589.
`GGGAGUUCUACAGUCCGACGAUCGUGGGGAUUGAGAAGGGGUGAAUAGAGGCUUGAGACUUUCCUUUGUGUGGUAGGACUUGGAGGAGAAAUCCCCUGGACUUUCACUAACCCUCUGACAUACUCCCCACACCUGGAAUUCUCGGGUGCCAA` — result for “RBNS enrichment (R)”: 0.418.
`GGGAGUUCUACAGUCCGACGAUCACACUGAUUCAGGCCUUGAGAGUCAAGCCCAAGAGCUCCCUUGGCCCUGUUCCCCACUCCCUCCACUGGCCUCUGCUGUUCCUGUCUUUGCUCACACCCUCACAGCUGCUUGGAAUUCUCGGGUGCCAA`: “RBNS enrichment (R)” 0.736.
`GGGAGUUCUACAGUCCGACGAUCAAUGGAAUGUUAACUGAAUGGAAUUAAACAUAGCAAUUGUCAAGCCAUCAAAAUUAUAUAUCGAACCACUUAGGCAUGUUACGGGGUAAAGUCCUCACCCCUGCAUUUGAUGGAAUUCUCGGGUGCCAA` — result for “RBNS enrichment (R)”: 1.69.
`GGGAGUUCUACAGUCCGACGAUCCACCAAGGCUGAUUUAUGUUAUUGCUGGUCUUUUUAGGACAAUGGAUGCAGAAUGAGGUAGCAUUCGAGUUGGAACCAAGAAGACUCUAAUGAUGUAUGCCCACCUUUCAUGGAAUUCUCGGGUGCCAA` — result for “RBNS enrichment (R)”: 3.5.
`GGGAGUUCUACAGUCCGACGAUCUUGCAACUGAAAUAUGAUGGAUAUGCUUAAGUACAACUGAUGGCAUGAAAAAAAUCAAAUUUUUGAUUUAUUAUAAAUGAAUGUUGUCCCUGAACUUAGCUAAAUGGUGCUGGAAUUCUCGGGUGCCAA` — result for “RBNS enrichment (R)”: 0.391.
`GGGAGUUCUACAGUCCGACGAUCGGCGCCUUGAGUUGGUGGUAGACUAGGGCAAAUGCCCUCUUUAGUGAGAGACCAGAGGUUUUGUAUAAGUUAUUGUCCUGCUCCCUUUUCAGUUGUCUUGAAGAGCUCUUUGGAAUUCUCGGGUGCCAA` — result for “RBNS enrichment (R)”: 0.982.
`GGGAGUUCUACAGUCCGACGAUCAUGUUGAAUUUUAUUGACUUAAUUGGUCUGUAGAUAUGAAAGCAUCUUCUAAGGAGUUUUAGAUUUAGAUAUUUCUCUCCGCUUUAAAAAAAAAUAAAAUUUGAGUGGAAUGGAAUUCUCGGGUGCCAA` — result for “RBNS enrichment (R)”: 0.703.
Under “RBNS enrichment (R)”, `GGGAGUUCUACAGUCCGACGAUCCGUGUGCUUUUGUAGAGUUUAACAUCUGGUGUUUUUCUGAAAUAUAUAUAAAUAUAUAUCUAUAAACAUAUAUUGCUUUAUUUGAAACAAAUUAAAAUAUGCUGCAUUUGUGGAAUUCUCGGGUGCCAA` is recorded as 1.43.
`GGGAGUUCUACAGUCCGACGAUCGUGUUCCACGAAGGAGGCUCUUCUCAGUCUCUGGGCUCUCCUUUAGAGUUAAGGUCUUAAAAUGUAUUUUGUCCUAAAUAAACUGCGUUUGGUAAACCUUGGCUGGCAAGUGGAAUUCUCGGGUGCCAA`: “RBNS enrichment (R)” 0.32.
Under “RBNS enrichment (R)”, `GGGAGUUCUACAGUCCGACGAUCACAGAUGAUCUGUUCACUUGAAGGUGAUUUUUAUCUUGUAGUCAGUGUUACAAGAAAAGGCUGGAAGCAUUUCUACUAAGCGAGGCCCUUUACAGUGACCUCCAGGCAACUGGAAUUCUCGGGUGCCAA` is recorded as 0.247.

For quick reference, copied from above (series 4):
`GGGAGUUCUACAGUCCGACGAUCCACCAAGGCUGAUUUAUGUUAUUGCUGGUCUUUUUAGGACAAUGGAUGCAGAAUGAGGUAGCAUUCGAGUUGGAACCAAGAAGACUCUAAUGAUGUAUGCCCACCUUUCAUGGAAUUCUCGGGUGCCAA` — result for “RBNS enrichment (R)”: 3.5.
`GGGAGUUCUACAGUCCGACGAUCAUGUUGAAUUUUAUUGACUUAAUUGGUCUGUAGAUAUGAAAGCAUCUUCUAAGGAGUUUUAGAUUUAGAUAUUUCUCUCCGCUUUAAAAAAAAAUAAAAUUUGAGUGGAAUGGAAUUCUCGGGUGCCAA` — result for “RBNS enrichment (R)”: 0.703.
`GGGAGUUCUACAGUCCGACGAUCUUGCAACUGAAAUAUGAUGGAUAUGCUUAAGUACAACUGAUGGCAUGAAAAAAAUCAAAUUUUUGAUUUAUUAUAAAUGAAUGUUGUCCCUGAACUUAGCUAAAUGGUGCUGGAAUUCUCGGGUGCCAA` — result for “RBNS enrichment (R)”: 0.391.
`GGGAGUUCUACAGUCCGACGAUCGUGUUCCACGAAGGAGGCUCUUCUCAGUCUCUGGGCUCUCCUUUAGAGUUAAGGUCUUAAAAUGUAUUUUGUCCUAAAUAAACUGCGUUUGGUAAACCUUGGCUGGCAAGUGGAAUUCUCGGGUGCCAA`: “RBNS enrichment (R)” 0.32.
`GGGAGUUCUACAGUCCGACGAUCGUGGGGAUUGAGAAGGGGUGAAUAGAGGCUUGAGACUUUCCUUUGUGUGGUAGGACUUGGAGGAGAAAUCCCCUGGACUUUCACUAACCCUCUGACAUACUCCCCACACCUGGAAUUCUCGGGUGCCAA` — result for “RBNS enrichment (R)”: 0.418.
